Results gathered from unrelated publications.
Protocols differ between the studies behind these lines. Numbers after ± are the reported error.
Matrix: plasma

For `Cc1ncc(CO)c(C(=O)O)c1O`, the AUC(0-24h) was 55.1 ± 14.9 ng·h/mL (human, Japanese males; dose not given, endogenous baseline level).
`CCN(CC)CCNC(=O)c1c(C)[nH]c(/C=C2\C(=O)Nc3ccc(F)cc32)c1C` gave an AUC(0-24h) of 414 ng·h/mL (LC-MS/MS; human, cancer patients on NNRTI; oral, 50 mg/day, cycle 1 day 1).
`Cc1ccc(NC(=O)c2ccc(CN3CCNCC3)cc2)cc1Nc1nccc(-c2cccnc2)n1` gave an AUC(0-24h) of 4100 ng·h/mL (human patients; oral, 400 mg of imatinib, first dose, day 1 of cycle 1).
With `CCN1C(=O)CNc2ncc(-c3ccc(-c4nc[nH]n4)nc3C)nc21` the AUC(0-24h) was 1100 ng·h/mL (human; oral, 16 mg once daily, multiple doses).
`CS(=O)(=O)n1cc2c(n1)CN([C@H]1CO[C@H](c3cc(F)ccc3F)[C@@H](N)C1)C2` gave an AUC(0-24h) of 1.5 µM·h (healthy male human; oral, 5 mg, fasted, geometric mean).
`CC[C@H](C)[C@H](NC(=O)[C@H](CCC(N)=O)NC(=O)[C@H](Cc1c[nH]cn1)NC(=O)[C@H](C)NC(=O)[C@H](CC(C)C)NC(=O)[C@H](CCCCN)NC(=O)[C@H](CCC(N)=O)NC(=O)[C@@H](NC(=O)[C@@H](NC(=O)[C@@H]1CSSC[C@H](NC(=O)CNC(=O)[C@H](Cc2ccccc2)NC(=O)[C@H](CO)NC(=O)[C@H](CCCNC(=N)N)NC(=O)[C@H](CC(C)C)NC(=O)CNC(=O)[C@H](CCC(N)=O)NC(=O)[C@H](Cc2ccccc2)NC(=O)[C@H](CC(N)=O)NC(=O)[C@H](CC(N)=O)NC(=O)[C@H](CCSC)NC(=O)[C@H](CO)NC(=O)[C@H](CCC(N)=O)NC(=O)[C@H](CCCNC(=N)N)NC(=O)[C@@H](N)Cc2ccc(O)cc2)C(=O)N[C@@H](CCCNC(=N)N)C(=O)N[C@@H](Cc2ccccc2)C(=O)NCC(=O)N[C@@H]([C@@H](C)O)C(=O)N1)[C@@H](C)O)C(C)C)C(=O)N[C@@H](Cc1ccc(O)cc1)C(=O)N[C@@H](CCC(N)=O)C(=O)N[C@@H](Cc1ccccc1)C(=O)N[C@H](C(=O)N[C@@H](CC(=O)O)C(=O)N[C@@H](CCCCN)C(=O)N[C@@H](CC(=O)O)C(=O)N[C@@H](CCCCN)C(=O)N[C@@H](CC(=O)O)C(=O)N[C@@H](CC(N)=O)C(=O)N[C@H](C(=O)N[C@@H](C)C(=O)N1CCC[C@H]1C(=O)N[C@@H](CCCNC(=N)N)C(=O)N[C@@H](CO)C(=O)N[C@@H](CCCCN)C(=O)N[C@H](C(=O)N[C@@H](CO)C(=O)N1CCC[C@H]1C(=O)N[C@@H](CCC(N)=O)C(=O)NCC(=O)N[C@@H](Cc1ccc(O)cc1)C(N)=O)[C@@H](C)CC)C(C)C)[C@@H](C)O` gave an AUC(0-24h) of 0.466 ± 0.122 ng·h/mL (human, male; intravenous infusion, 15 ng/kg/min daily, 7 days, day 7).
For `CC(C)(C(=O)NCC(F)(F)C(F)(F)F)C(=O)N[C@@H]1C(=O)Nc2ccccc2-c2ccccc21`, the AUC(0-24h) was 2350 ng·h/mL (human patients; oral, 10 mg, day 15, geometric mean, together with: bevacizumab).
With `C#C[C@]1(CO)O[C@@H](n2cnc3c(N)nc(F)nc32)C[C@@H]1O` the AUC(0-24h) was 0.27 µM·h (human; oral, 2.25 mg once daily, day 19 of, geometric mean, together with: doravirine 100 mg once daily).
The AUC(0-24h) of `COc1cccc(-c2ccc(NC(=O)C3=C(C(=O)O)CCC3)c(F)c2)c1` is reported as 41100 ng·h/mL (human, male, fasted; oral, 20 mg, single dose, geometric mean).

For quick reference, copied from above:
For `CC(C)(C(=O)NCC(F)(F)C(F)(F)F)C(=O)N[C@@H]1C(=O)Nc2ccccc2-c2ccccc21`, the AUC(0-24h) was 2350 ng·h/mL (human patients; oral, 10 mg, day 15, geometric mean, together with: bevacizumab).
